Measurements gathered from unrelated publications.
Each numbered part is a random draw from the data of one study; scales do not carry over between parts. Positions count from the first letter of the parent shown.

Study 1
Target: Sal-like protein 4, full length isoform A (SALL4, Homo sapiens, UniProt Q9UJQ4, residues 1-1053)
UniProt Q9UJQ4, sequence (whole entry, looked up): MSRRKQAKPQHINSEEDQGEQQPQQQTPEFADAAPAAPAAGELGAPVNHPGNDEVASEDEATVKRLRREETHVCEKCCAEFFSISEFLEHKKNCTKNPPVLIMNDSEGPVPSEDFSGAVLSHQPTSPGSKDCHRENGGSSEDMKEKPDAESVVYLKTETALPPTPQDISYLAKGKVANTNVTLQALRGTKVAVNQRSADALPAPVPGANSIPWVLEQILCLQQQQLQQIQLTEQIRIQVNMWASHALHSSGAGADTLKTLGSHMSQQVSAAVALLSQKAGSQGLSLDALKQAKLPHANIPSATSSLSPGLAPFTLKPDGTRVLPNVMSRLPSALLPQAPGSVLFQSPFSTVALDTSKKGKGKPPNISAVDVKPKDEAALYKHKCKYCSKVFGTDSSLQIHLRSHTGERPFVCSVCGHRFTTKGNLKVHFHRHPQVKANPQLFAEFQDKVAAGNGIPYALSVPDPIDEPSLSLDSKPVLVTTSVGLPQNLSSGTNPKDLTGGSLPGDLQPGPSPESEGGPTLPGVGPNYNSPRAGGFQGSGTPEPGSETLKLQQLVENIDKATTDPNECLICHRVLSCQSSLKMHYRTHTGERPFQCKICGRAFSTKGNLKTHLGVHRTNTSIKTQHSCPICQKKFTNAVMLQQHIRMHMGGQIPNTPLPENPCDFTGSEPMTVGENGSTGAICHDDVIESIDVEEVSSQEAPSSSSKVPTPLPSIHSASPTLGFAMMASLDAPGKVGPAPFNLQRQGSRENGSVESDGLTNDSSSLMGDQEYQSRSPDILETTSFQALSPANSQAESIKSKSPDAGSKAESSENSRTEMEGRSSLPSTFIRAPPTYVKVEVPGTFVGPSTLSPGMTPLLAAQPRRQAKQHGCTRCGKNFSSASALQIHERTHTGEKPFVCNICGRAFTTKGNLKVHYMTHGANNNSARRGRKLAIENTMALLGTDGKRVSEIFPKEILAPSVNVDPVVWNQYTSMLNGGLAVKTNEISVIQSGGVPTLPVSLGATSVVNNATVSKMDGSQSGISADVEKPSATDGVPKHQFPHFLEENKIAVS
Technique: universal PBM
Molecule type: double-stranded DNA, one strand shown
Sample: in vitro
Concentration: 600 nM
Setting: 8-mer, flanks averaged, mean of replicates
Reading: higher = stronger binding
| Oligonucleotide | E-score |
| --- | --- |
| ACGTTAAT | 0.217 |
| AAAGACCG | -0.0283 |
| CAATTGCC | 0.0722 |
| ACTCGATG | -0.019 |
| GGACTTGA | -0.12 |
| CCTAAACA | 0.0388 |
| CGTACTTC | 0.0941 |
| ACAGACCT | -0.0424 |
| ATAGCCGG | -0.0612 |
| GGCGGATA | -0.134 |
| ATGCCTGA | 0.0416 |
| CCCCTCCA | -0.149 |
| ATGAGTGC | 0.152 |
| CGTACCAA | -0.0457 |
| GAGTTAAA | 0.00404 |
| GCAAGGTA | 0.0621 |
| GTTTGGGA | -0.0178 |
| CACGCAAA | -0.0139 |
| CATGAGTA | 0.0579 |
| AAGGCTAC | -0.00518 |
| CGTTTGTC | -0.175 |
| CGAGTTAG | -0.0233 |
| GGTAAGGA | -0.0675 |
| TACCTCGA | 0.0926 |
| CTCTGTAA | 0.084 |

Study 2
Target: CCNA1, cyclin fold, Cln2 fusion (human)
Technique: yeast growth competition, sequencing
Sample: yeast
Setting: weak parent motif
Baseline: not given
Reading: higher = stronger binding
Starting sequence: CABLES2 docking peptide (human); ICAKRSLCAAFSV; partner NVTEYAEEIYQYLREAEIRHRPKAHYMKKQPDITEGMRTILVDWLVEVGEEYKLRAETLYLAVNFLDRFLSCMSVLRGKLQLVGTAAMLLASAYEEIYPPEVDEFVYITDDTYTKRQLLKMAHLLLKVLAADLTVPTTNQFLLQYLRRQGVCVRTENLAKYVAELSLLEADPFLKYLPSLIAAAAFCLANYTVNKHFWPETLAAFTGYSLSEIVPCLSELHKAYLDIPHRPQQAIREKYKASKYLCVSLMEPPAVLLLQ
| Change | normalised enrichment score |
| --- | --- |
| I1A | -0.207 |
| S12A | 0.433 |
| K4A | 0.205 |
| S6A | 0.165 |
| V13A | 0.119 |

Study 3
Target: Interferon regulatory factor 3, full length, phosphomimetic (IRF3, Homo sapiens, UniProt Q14653, residues 1-427, S386D/S396D/S398D/S402D/T404D/S405D)
Technique: protein-binding microarray
Molecule type: double-stranded DNA, one strand shown
Sample: in vitro
Concentration: 2540 nM top
Setting: 60-bp whole probe
Added: salmon DNA 0.4 mg/ml
Baseline: random background probes
Reading: higher = stronger binding
Constant ends, left off below: GCCTAGCAC … GTCTTGATTCGCTTGACGCTGCTG
Residues (chain): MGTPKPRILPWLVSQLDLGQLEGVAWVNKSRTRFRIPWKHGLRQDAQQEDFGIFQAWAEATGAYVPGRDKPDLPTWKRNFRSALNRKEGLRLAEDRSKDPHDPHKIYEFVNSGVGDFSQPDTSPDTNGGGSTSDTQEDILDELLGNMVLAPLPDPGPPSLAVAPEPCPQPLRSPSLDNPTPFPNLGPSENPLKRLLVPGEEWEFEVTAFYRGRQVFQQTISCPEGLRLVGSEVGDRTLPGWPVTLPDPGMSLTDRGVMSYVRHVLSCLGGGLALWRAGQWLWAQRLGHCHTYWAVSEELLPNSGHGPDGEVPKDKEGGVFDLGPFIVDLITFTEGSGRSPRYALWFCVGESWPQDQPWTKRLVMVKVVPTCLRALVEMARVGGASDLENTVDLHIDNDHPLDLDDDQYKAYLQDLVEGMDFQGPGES
| Oligonucleotide | fitted relative affinity [z-score] |
| --- | --- |
| CCAACTCTGTTTTCGCTTTCTGTGCTA | 3.15 |
| TTTTTTCTACTTCTCTTTTGGTGCTAG | 2.67 |
| GACGGTCTCGGTTTCCGGACGTGCTAG | 3.99 |
| ATCACTTTCCACTTGTCTTTGTGCTAG | 4.09 |
| CCATTCTTGGGACTCACCTGGTGCTAG | 1.98 |
| GAGACTTTGCTCTGTGCATAGGTGCTA | -0.565 |
| TTAGAACTCAGACTGGATTAGTGCTAG | -0.189 |
| TTTGGTTCCGGTTTCGGTTAGTGCTAG | 7.79 |
| GACGATATCGGGAGTGGAGACGTGCTA | -0.0277 |
| TCAATTTTTAGGATGGGACTGTGCTAG | -0.0861 |
| TCACTTCTCCCTTTCAGACTGTGCTAG | 3.1 |
| GCCGGTATCCTTTTCCTGACGTGCTAG | 7.75 |
| TTAGGACTGCTTTTGCTTTAGTGCTAG | -0.0816 |
| GGATATATATCATTTAATTAGTGCTAG | 0.701 |
| GACGGTTTCGGGTATCGGGAGGTGCTA | 4.52 |
| TTAGGTATCCACTTTCGGTTAGTGCTA | 3.45 |
| GACGGACTGGGGTTTCCGGACGTGCTA | 0.582 |
| CCCATTCTCAGCCCTGCGCATGTGCTA | 2.59 |

Study 4
Target: Histone acetyltransferase KAT6A, both winged helices, GST fusion (KAT6A, Homo sapiens, UniProt Q92794, residues 1-181)
Technique: protein binding microarray
Molecule type: double-stranded DNA, one strand shown
Sample: in vitro
Concentration: not given
Setting: 8-mer, flanks averaged, mean of 2 arrays, mostly near background
Baseline: not given
Reading: higher = stronger binding
Residues (chain): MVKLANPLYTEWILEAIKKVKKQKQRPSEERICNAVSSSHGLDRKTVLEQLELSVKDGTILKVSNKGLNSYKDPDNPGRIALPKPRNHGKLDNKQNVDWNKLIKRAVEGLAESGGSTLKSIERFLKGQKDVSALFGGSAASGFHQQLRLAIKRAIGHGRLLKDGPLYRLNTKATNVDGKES
| Oligonucleotide | E-score |
| --- | --- |
| CTCTCCAA | -0.123 |
| ACACACAA | -0.00427 |
| CTATCGGC | 0.227 |
| GGTAGTAA | -0.126 |
| CAATCGGG | 0.1 |
| GCAAGTAA | -0.169 |
| CGGTCACA | 0.121 |
| CGGTAGCC | 0.141 |
| CATGGGCC | -0.0629 |
| ATATCACG | -0.0991 |
| ATATGCCC | -0.224 |
| CAGTTCAG | -0.0707 |
| GACACTGA | -0.041 |
| GGCGTTGA | 0.0245 |
| ACGGCGAA | 0.327 |
| GACGTCCA | -0.00387 |
| AACAATCT | -0.0621 |
| TCGGCCCA | 0.143 |
| CGTGTTGA | -0.0374 |

Study 5
Target: Hepatocyte nuclear factor 3-beta, forkhead domain (FOXA2, Homo sapiens, UniProt Q9Y261, residues 142-269)
Technique: protein-binding microarray
Molecule type: double-stranded DNA, one strand shown
Sample: in vitro
Concentration: not given
Setting: k-mer, scored over probes, only values ≥0.25
Reading: higher = stronger binding
Residues (chain): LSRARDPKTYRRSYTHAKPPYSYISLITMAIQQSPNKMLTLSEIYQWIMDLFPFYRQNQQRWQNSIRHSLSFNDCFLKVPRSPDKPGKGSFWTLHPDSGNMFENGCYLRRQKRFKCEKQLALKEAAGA
| Oligonucleotide | E-score |
| --- | --- |
| ATCTAATA | 0.336 |
| GTCTAGTA | 0.285 |
| AATCATGA | 0.298 |
| ATGTGTCA | 0.282 |
| ATTCATTC | 0.254 |
| ATGACCCA | 0.256 |
| TAAATCAA | 0.321 |
| AAATATCG | 0.251 |
| ATAAGCAA | 0.27 |
| GTGATAAC | 0.259 |
| ATATGTGA | 0.402 |
| AAACAATT | 0.295 |
| ATTTACTC | 0.351 |
| ATTAATAG | 0.357 |
| AGTATGTC | 0.286 |
| ACAACACC | 0.289 |
| CCATATAC | 0.306 |
| ATTATTTA | 0.336 |
| TAACACCA | 0.255 |
| GTGTTTAA | 0.279 |
| CTGTAAAC | 0.306 |
| CAGTATAC | 0.257 |
| AACTACAT | 0.297 |
| ATTAACGA | 0.267 |
| AGTATTCA | 0.255 |

Study 6
Target: RNA binding protein fox-1 homolog 2, RRM domain, GST-SBP tag (RBFOX2, Homo sapiens, UniProt O43251-10, residues 100-194)
Technique: RNA Bind-n-Seq
Molecule type: RNA
Sample: in vitro
Concentration: 365 nM
Setting: natural RNA segment, single round, ends assumed
Baseline: no-protein control
Reading: higher = stronger binding
Target sequence (chain): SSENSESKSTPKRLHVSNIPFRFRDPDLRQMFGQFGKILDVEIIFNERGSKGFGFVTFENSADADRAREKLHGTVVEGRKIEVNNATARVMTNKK
| Oligonucleotide | RBNS enrichment (R) |
| --- | --- |
| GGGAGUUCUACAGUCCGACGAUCGUGGAGGAACUGUGCCUCCAUCCCCAGAAGAAACAGCCCCCUCUGCUGCUGGGGUGGGACUGUCUGUGUGCCCUGUGGGGGUCCGUGUGAGCAGGCCCACCUGGCUCCAGUGGAAUUCUCGGGUGCCAA | 0.294 |
| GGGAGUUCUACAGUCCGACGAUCAAAAUAAAGUUGAGGCAGUUUUUGUGAAGAUAAUAUGGUUAGGGCUGGAGUGCACUAGUCUUUUUGCUUAUUCAUUUUGCAUGGUUUUAAAAUUAAAAAUAAUUCCGAAGUGGAAUUCUCGGGUGCCAA | 2.36 |
| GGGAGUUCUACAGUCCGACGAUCGUCCCCCUUUCAGGCGUGUGGCGUCAUUCAUGGAGGAAGUGCUGGCUCUACUUAGCACACGCACAGUGGCACUAGGACCUGCGUGCCUGGCCCUCAGUGGGUAGGGCGGUUGGAAUUCUCGGGUGCCAA | 0.333 |
| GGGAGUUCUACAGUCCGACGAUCGCCCCACGCUUUUCUCUCUUCCUUCCCCUCUCAUUCUCCCUCUAAUGUGUGGUGCUUUGGUGAGCAAACCCUCAGCAGUCCUGACCUUCGGGUGACCAGGUGCUUGUGACUGGAAUUCUCGGGUGCCAA | 1.5 |
| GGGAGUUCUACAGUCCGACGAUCCAUCAGUUGUUCUUGGAAGUUUUUAGAAGACCUCACGGACUUUGCAGUUUAUUUUUCUUGGCCAACACAUUAAAACCAUUCUUGGAUUUCAAGUAGCCAAUUUUGCCUUUUGGAAUUCUCGGGUGCCAA | 0.504 |
| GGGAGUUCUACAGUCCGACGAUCGCCCAGAAACCAGAAGCCCCUAUAGAGGCCCCAGUCCCAACUCCAGUAAAGACACUCUUGUCCUUGGGCAUGGCUGUGCUCUCCUUGCUGGGUGGGAAGGGCCCUCAGCUUGGAAUUCUCGGGUGCCAA | 0.277 |
| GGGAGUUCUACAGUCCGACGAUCCUCCCCACAGUGGAAUUGUUGAAGUGUGGCGAGUCUGUGCUCGGGACAAUAAAGCUUGUGACAGGUCCAGGACCCCGGCAGUUGGCUUGUCUCCUCCUCUCCGUGGGGACUGGAAUUCUCGGGUGCCAA | 0.278 |
| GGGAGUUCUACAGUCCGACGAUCCUUUUAAACACUAAAAUGUCUAAUUUAUACUUAAGGCUACAGAAGAGUAUUUAUGGGAAAGGCUGCCCAUGACCAGUGUGACUCAAAGCAAUGUGAUCUCCCUUGAUUCAUGGAAUUCUCGGGUGCCAA | 0.52 |
| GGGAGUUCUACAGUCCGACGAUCGUUGCCAGAUAUAACUGCUUUGGAGCAAAUCUCUUCUGUUUAGAGAGAUAGAAGUUAUGACAUAUGUAAUACACAUCUGUGUACACAGAAACCGGCACCUGCCAGACAGAUGGAAUUCUCGGGUGCCAA | 0.315 |
| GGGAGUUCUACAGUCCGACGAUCCUAAGACCAAGGACCUCUCAUGUGCAAGAUGGAGUAUUUGGUACCCAGUUAGAGCCCCUGGAAGUCCUCUUUCAGUUAGUGGCAAGCCACAUAUCCUGGAUCACAAAGCAUGGAAUUCUCGGGUGCCAA | 6.1 |
| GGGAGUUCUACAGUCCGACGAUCAACCCUUUGUAACCGGGGCCUUGCCCCCACCUCCUGUCUUUUCUCCUUGCCUUCCCCACUCCUGUGUCCUCCCAUCUAUCCUGUCUUUCCUUUCCUCCUCUCAGUGUCCUUGGAAUUCUCGGGUGCCAA | 2.02 |
| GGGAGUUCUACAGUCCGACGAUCGACCCUCUUCCCUCCACUGAGUGCUGGACAUUCGGAACCCAAGUUCUUAUGGACCUACGGAGGAGAGAGAGAAAGCUUUAUGUAUGGGGGAAAAAAAGAUACUUUUUUAUUGGAAUUCUCGGGUGCCAA | 0.286 |

A few entries again (study 1):
| Oligonucleotide | E-score |
| --- | --- |
| ACTCGATG | -0.019 |
| CGTTTGTC | -0.175 |
| CACGCAAA | -0.0139 |
| CAATTGCC | 0.0722 |
| GGACTTGA | -0.12 |
| GTTTGGGA | -0.0178 |
| ATGCCTGA | 0.0416 |
| GGCGGATA | -0.134 |
| CGTACTTC | 0.0941 |
| GCAAGGTA | 0.0621 |
| CCCCTCCA | -0.149 |
| ATGAGTGC | 0.152 |
| CTCTGTAA | 0.084 |
| CCTAAACA | 0.0388 |
| CATGAGTA | 0.0579 |
| CGTACCAA | -0.0457 |
